Assay results gathered from unrelated publications.
Parts stem from different laboratories: compare values within a part only. Several values in a cell are separate wells, animals, samples, runs or records.
Chain of UniProt Q8TF76 (whole entry, looked up): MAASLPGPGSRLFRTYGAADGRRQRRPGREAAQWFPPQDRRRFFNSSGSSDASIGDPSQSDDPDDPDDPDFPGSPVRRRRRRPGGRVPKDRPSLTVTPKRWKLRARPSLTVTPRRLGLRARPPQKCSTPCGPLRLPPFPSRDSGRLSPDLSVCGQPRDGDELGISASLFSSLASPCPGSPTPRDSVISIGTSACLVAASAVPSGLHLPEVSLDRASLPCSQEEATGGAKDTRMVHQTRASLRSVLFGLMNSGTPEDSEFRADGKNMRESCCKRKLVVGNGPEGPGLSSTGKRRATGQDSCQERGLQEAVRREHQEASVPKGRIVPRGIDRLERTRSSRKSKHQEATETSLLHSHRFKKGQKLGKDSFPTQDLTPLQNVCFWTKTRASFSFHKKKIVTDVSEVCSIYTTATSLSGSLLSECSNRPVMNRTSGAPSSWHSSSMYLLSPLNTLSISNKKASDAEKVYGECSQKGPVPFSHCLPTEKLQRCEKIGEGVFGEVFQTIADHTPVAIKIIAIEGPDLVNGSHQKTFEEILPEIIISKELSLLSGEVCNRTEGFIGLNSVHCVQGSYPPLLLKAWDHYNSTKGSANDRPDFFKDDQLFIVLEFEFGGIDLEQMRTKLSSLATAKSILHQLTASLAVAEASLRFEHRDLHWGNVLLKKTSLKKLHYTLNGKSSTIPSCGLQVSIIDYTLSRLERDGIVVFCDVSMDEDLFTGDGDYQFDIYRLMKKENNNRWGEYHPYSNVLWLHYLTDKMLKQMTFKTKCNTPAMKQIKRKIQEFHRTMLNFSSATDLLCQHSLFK
Chain of UniProt P42336 (whole entry, unmodified, looked up): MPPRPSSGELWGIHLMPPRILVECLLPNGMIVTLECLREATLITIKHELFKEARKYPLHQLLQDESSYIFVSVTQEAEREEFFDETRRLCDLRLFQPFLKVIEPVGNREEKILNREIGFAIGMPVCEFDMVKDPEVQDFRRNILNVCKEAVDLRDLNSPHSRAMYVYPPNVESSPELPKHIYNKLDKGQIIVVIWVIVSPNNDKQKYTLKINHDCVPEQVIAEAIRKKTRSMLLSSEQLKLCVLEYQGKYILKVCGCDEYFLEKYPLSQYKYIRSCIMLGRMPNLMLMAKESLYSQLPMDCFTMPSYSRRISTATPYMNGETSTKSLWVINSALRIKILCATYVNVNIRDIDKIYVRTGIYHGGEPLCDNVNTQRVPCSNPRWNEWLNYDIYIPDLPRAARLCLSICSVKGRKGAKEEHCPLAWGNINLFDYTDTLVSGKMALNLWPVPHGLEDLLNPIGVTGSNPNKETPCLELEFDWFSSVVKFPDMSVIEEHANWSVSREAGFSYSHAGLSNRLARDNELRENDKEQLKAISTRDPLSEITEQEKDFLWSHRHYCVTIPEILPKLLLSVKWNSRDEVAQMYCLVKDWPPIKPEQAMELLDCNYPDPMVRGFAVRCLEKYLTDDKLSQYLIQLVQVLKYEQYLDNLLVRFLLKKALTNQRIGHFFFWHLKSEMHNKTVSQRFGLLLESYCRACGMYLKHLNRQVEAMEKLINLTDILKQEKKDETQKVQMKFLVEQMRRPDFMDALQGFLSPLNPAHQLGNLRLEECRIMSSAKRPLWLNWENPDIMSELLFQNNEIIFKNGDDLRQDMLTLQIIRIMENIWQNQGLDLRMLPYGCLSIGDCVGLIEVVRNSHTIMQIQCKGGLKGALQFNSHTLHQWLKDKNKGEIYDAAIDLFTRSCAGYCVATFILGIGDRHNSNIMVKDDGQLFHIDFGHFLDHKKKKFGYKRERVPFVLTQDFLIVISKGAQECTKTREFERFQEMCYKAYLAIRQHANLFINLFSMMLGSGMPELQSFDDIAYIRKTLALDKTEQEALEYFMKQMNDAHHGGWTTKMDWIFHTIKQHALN
Chain of UniProt Q9UF33 (whole entry, looked up): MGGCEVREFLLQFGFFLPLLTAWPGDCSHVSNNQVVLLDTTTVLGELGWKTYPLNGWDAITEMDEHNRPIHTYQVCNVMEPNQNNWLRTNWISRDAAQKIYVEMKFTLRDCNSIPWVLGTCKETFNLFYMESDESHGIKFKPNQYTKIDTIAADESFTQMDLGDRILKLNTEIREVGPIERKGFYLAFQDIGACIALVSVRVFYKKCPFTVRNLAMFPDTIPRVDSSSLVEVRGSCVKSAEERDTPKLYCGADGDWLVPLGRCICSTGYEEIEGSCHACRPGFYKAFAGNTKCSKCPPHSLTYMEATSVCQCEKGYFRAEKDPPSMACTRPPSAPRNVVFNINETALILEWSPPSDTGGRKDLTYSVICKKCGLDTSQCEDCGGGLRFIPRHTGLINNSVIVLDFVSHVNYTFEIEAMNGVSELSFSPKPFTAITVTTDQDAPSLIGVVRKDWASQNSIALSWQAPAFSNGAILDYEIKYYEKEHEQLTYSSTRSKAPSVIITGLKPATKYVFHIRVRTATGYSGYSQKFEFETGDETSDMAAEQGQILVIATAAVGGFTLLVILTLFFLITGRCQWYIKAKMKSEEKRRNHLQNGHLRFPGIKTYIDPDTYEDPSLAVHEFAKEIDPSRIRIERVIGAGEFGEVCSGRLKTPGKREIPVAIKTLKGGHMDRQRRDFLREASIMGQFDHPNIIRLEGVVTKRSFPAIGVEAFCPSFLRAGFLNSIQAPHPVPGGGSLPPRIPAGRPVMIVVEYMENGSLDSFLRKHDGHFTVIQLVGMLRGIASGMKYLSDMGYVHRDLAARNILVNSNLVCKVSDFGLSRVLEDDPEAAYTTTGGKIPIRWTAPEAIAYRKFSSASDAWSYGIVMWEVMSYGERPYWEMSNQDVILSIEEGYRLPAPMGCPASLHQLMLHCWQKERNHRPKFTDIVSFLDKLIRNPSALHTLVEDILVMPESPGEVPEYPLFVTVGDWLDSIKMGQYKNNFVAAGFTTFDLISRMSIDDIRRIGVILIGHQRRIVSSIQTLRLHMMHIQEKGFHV
Chain of UniProt Q8NE63 (whole entry, looked up): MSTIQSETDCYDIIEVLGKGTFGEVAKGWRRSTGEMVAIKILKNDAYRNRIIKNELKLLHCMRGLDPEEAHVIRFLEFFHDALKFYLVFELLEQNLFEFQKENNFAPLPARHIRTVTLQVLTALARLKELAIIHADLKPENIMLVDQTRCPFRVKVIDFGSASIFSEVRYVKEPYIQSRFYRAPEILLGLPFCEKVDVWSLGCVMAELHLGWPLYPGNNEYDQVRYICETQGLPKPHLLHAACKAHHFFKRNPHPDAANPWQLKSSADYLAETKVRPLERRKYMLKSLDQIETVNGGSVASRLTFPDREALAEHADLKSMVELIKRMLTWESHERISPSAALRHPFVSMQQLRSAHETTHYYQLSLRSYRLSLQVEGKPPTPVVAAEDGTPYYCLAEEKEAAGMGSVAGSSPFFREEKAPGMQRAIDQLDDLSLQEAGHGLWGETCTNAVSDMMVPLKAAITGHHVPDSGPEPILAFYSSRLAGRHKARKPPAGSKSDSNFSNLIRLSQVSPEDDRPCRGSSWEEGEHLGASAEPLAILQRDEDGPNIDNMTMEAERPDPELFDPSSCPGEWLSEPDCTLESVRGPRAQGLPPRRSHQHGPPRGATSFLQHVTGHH
Chain of UniProt Q13557 (whole entry, looked up): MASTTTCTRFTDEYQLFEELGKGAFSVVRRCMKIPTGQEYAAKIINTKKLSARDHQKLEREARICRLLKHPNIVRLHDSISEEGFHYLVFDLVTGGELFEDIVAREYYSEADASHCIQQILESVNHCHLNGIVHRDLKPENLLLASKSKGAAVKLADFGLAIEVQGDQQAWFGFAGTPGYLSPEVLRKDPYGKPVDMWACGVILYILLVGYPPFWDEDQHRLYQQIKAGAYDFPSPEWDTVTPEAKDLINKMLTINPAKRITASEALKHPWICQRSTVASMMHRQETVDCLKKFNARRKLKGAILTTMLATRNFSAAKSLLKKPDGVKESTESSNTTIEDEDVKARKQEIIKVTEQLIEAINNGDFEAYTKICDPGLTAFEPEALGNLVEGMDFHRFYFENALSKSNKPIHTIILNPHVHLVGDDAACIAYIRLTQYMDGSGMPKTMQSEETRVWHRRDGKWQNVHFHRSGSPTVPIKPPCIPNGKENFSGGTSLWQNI

Set 1 — host: human; matrix: microsomes or S9; concentration: 2 µM; time: 0.5 h; measurement: remaining compound
CCCSc1nc(OC)c(-c2ccccc2C)c(=O)n1C: 17.3%
CC(C)O[C@H]1C[C@@H](NC(=O)Nc2ccnnc2)C1: 96.8%
Cc1cc(OC2CN(S(=O)(=O)N(C)C)C2)cc(=O)n1C: 99.5%
Cc1cc(C)n(-c2nc3cc(Cl)ccc3nc2N2CCN(c3ccccn3)CC2)n1: 2.8%
c1ccc(-c2ncn(CCn3nnc4ccccc43)c2-c2ccsc2)cc1: 3.5%

Set 2 — organism: Plasmodium berghei; action: inhibitor; cell line: Huh-7; strain: liver stage; concentration: 10 µM; time: 24 h; relative to: untreated control; measurement: infection rate
CO[C@]12C[C@@H](COC(=O)c3cncc(Br)c3)CN(C)[C@@H]1Cc1cn(C)c3cccc2c13: 98.1%
C[N+]1(C)CCCC(OC(=O)C(O)(c2ccccc2)c2ccccc2)C1 (centres unmarked): 96.3%
COCCc1ccc(OCC(O)CNC(C)C)cc1 (centres unmarked): 98.2%

Set 3 — cell line: sample C colorectal tumour organoid; concentration: 1 µM; relative to: DMSO; measurement: viability
COc1ccc2c(O[C@@H]3C[C@H]4C(=O)N[C@]5(C(=O)O)CC5/C=C\CCCCC[C@H](NC(=O)OC5CCCC5)C(=O)N4C3)cc(-c3csc(NC(=O)C(C)C)n3)nc2c1C (some centres unmarked): 108%
CCOc1cn(-c2ccc(F)cc2C)nc1C(=O)Nc1ccc(Oc2ccnc3cc(OC)c(OC)cc23)c(F)c1: 101% and 102%
CCC(=N\O)/C(C)=C/c1ccc(F)cc1: 106%
COc1cccc(NC(=O)c2nc3scc(CN(C)Cc4ccccc4)c3c(=O)[nH]2)c1: 89.4%
CCNC(=O)c1cc2c(N3CCOC[C@H]3C)ccnc2n1C: 122% and 82%
O=C(Nc1cccnn1)N1CC(CC=Cc2cncc(Oc3ccc(C(F)(F)F)cn3)n2)C1: 99.5%
CCN(CC)S(=O)(=O)Nc1cccc(-c2ccc3c(NC(=O)C4CC4)n[nH]c3c2)c1: 79.4%
CC(=O)NCC(=O)N1[C@@H]2CC[C@H]1c1ccc(Nc3ncc(C(F)(F)F)c(NC4CCC4)n3)cc12: 22.6% and 33.8%
CCC(=NO)C(C)=Cc1ccc(F)c(C)c1: 85.5%
Cn1cc(-c2ccc3occ(-c4ccccc4-c4ccccc4)c3n2)cn1: 102%
Cc1ncc(-c2cc(Cl)ccc2F)cc1-n1c(=O)n(CC(N)=O)c2ccccc21: 106%
O=C(O)c1ccc(-c2coc3ncc(-c4ccccc4)cc23)cc1Cl: 104%
O=C(NCc1ccccc1)c1ccc(S(=O)(=O)NCc2ccccc2)cc1: 95.2%
Cl.Cl.NC1(c2ccc(-c3nc4ccn5c(=O)[nH]nc5c4cc3-c3ccccc3)cc2)CCC1: 90.8%
CC(C)C(=O)Nc1n[nH]c2cc(-c3cccc(NS(=O)(=O)C4CC4)c3)ccc12: 98.3%
COc1cc(Nc2ccnc3ccc(Br)cc23)cc(OC)c1OC: 34.8%
CCCCNc1ncc(-c2ccc(CN3CCOCC3)cn2)c(NC2CCC(O)CC2)n1 (centres unmarked): 100%
CN1CCN(Cc2cc(NC(=O)c3ccc4c(c3)CN(c3ccccc3)CC4)cc(C(F)(F)F)c2)CC1: 43.9% and 37.4%
CN(C)C(=O)Cn1cc(-c2ccc(-c3nnc4ccccn34)cc2)cn1: 99.9%

Set 4 — cell line: mouse MPNST tumor cells; technique: high-content nuclear imaging; item: cell number; concentration: 10 µM; time: 12 h; notes: mean of 2 replicates; relative to: plate mean; direction: higher = more cells; measurement: nuclei count
CNc1cc2[nH]c(=O)n(-c3ccc(NC(=O)NS(=O)(=O)c4ccc(Cl)s4)cc3)c(=O)c2cc1F: 2.58 z-score
CC1(C)c2cc(Cl)ccc2N(CCc2nn[nH]n2)c2ccc(Cl)cc21: 1.47 z-score
CC[C@H]1OC(=O)[C@H](C)[C@@H](O[C@H]2C[C@@](C)(OC)[C@@H](O)[C@H](C)O2)[C@H](C)[C@@H](O[C@@H]2O[C@H](C)C[C@H](N(C)C)[C@H]2O)[C@](C)(O)C[C@@H](C)CN(C)[C@H](C)[C@@H](O)[C@]1(C)O: 2.75 z-score and 4.02 z-score and 2.61 z-score

Set 5 — cell line: HaCaT; concentration: 100 µM; time: 18 h; measurement: viability
CC(=O)SCC(Cc1ccccc1)C(=O)NCC(=O)OCc1ccccc1 (centres unmarked): 111%
O[C@H](CNC[C@@H](O)[C@H]1CCc2cc(F)ccc2O1)[C@@H]1CCc2cc(F)ccc2O1: 16.1%
Cc1cc2nc3c(=O)[nH]c(=O)nc-3n(C[C@H](O)[C@H](O)[C@H](O)COP(=O)(O)O)c2cc1C: 140%

Set 6 — concentration: 1 µM; measurement: remaining binding
SMILES: Cc1ccc(NC(=O)c2ccnc(C(F)(F)F)c2)cc1-c1cc(OCCO)nc(N2CCOCC2)c1
Homeodomain-interacting protein kinase 4 (HIPK4, Homo sapiens, UniProt Q8NE63); competitive binding panel; relative to: vehicle: 98%
Ephrin type-A receptor 6 (EPHA6, Homo sapiens, UniProt Q9UF33); competitive binding panel; relative to: vehicle: 91%
Calcium/calmodulin-dependent protein kinase type II subunit delta (CAMK2D, Homo sapiens, UniProt Q13557); competitive binding panel; relative to: vehicle: 92%
Phosphatidylinositol 4,5-bisphosphate 3-kinase catalytic subunit alpha isoform (PIK3CA, Homo sapiens, UniProt P42336, H1047Y); competitive binding panel; relative to: vehicle: 74%
Serine/threonine-protein kinase haspin (HASPIN, Homo sapiens, UniProt Q8TF76); competitive binding, DiscoverX scanMAX binding: 100%
